Results from different studies.
Every numbered part comes from another study and shows a few of its results, in no order.

Study 1 — method: competition protein-binding microarray; molecule type: double-stranded DNA, one strand shown; sample: in vitro; concentration: 2 µM; with: Pho4 competitor, 0.05 µM; reading: higher = stronger binding; shared flanks, not repeated: … GTCTTGATTCGCTTGACGCTGCTG
Target: Centromere-binding protein 1, full length, His-tagged (CBF1, Saccharomyces cerevisiae, UniProt P17106, residues 1-351)
Sequence of UniProt P17106 (whole entry, looked up): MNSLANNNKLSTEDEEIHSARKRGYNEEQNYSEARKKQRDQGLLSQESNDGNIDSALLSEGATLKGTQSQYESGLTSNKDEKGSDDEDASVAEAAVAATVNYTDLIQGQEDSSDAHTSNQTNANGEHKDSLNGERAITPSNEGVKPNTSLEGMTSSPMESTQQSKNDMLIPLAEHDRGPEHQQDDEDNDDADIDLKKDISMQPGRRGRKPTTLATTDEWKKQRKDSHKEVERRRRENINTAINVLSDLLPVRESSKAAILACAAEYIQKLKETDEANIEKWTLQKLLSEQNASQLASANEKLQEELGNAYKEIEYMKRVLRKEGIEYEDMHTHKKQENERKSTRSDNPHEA
Setting: whole 60-bp probe, lowest competitor level
Sequence | fluorescence intensity
CCGGTCCTTTGCTGGCACGTGAATTGGATAGTACAT | 1730 a.u.
ATCAAGACGGGATTGCACACGCATTAACAACAACTC | 72.5 a.u.
TCTGTATTCCCCAGAGTTGTGACGAATAACTGGTGA | 80.6 a.u.
TTCTGCAGGGCCCGGCCCGGGTCGTCCGGAAAAAGA | 42.9 a.u.
GCGACTATGGTATTTCTCGTGATGGGCCTGAAGGTT | 126 a.u.

Study 2 — method: protein binding microarray; molecule type: double-stranded DNA, one strand shown; sample: in vitro; concentration: not given; relative to: not given; reading: higher = stronger binding
Target: Histone acetyltransferase KAT6A, winged helix 2, GST fusion (KAT6A, Homo sapiens, UniProt Q92794, residues 85-181)
Setting: 8-mer, flanks averaged, mean of 2 arrays, mostly near background
Construct (chain): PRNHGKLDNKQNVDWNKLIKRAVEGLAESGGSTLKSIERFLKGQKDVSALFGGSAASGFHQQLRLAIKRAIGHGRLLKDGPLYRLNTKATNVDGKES
Sequence | E-score
CTACGTAC | -0.0852
AACTGCAC | 0.0997
GGTTCTGA | 0.0703
GGCACCGA | 0.0824
CGACTGCG | 0.143
AATATTAC | -0.0888
ATTCCCGA | 0.04

Study 3 — method: universal PBM; molecule type: double-stranded DNA, one strand shown; sample: in vitro; concentration: 600 nM; reading: higher = stronger binding
Target: Sal-like protein 4, full length isoform A (SALL4, Homo sapiens, UniProt Q9UJQ4, residues 1-1053)
Sequence of UniProt Q9UJQ4 (whole entry, looked up): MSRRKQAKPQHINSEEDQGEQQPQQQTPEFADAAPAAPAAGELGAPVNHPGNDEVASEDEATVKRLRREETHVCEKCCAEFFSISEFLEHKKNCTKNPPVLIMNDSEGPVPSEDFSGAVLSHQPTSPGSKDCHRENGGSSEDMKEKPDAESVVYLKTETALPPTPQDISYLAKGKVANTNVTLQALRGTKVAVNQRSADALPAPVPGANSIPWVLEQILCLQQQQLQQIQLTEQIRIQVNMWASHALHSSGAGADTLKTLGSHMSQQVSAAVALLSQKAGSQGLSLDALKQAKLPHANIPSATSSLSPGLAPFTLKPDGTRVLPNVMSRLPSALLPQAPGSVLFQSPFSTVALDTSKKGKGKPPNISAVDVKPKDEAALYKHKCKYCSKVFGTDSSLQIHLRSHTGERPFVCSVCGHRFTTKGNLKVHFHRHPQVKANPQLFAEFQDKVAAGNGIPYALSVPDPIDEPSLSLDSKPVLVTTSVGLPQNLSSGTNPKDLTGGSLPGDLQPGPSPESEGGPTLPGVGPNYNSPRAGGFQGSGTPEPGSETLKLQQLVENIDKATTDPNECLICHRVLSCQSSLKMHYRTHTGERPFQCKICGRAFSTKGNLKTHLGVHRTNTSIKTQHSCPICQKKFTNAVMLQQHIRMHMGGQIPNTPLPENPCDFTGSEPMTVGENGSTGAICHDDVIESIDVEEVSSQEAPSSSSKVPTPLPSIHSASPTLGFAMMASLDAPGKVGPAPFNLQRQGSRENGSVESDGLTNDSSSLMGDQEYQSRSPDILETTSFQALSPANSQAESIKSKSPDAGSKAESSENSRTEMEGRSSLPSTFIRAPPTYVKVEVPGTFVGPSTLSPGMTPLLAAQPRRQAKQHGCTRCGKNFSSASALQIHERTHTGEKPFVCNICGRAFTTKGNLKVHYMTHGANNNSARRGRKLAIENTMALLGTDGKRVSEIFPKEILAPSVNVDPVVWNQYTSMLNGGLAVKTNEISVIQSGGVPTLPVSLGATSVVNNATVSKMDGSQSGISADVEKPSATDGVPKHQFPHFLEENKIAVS
Setting: 8-mer, flanks averaged, mean of replicates
Sequence | E-score
AGTTTGAA | 0.214
CCGTTTAC | -0.0342
AAGATGCG | 0.0272
GCAAGCGC | -0.144
ATTCGTCG | -0.0586
AAAAGTTG | 0.0855

Other studies, line by line
Molecule | target | test | test system | conditions | scale | endpoint | value
PhoQ, residues 284 288 289 292 302 303 SASVAL | PhoP, residues 12 14 15 18 19 TPWLV (Escherichia coli, UniProt P23836) | Sort-seq, refers to: YFP reporter | E. coli | PhoQ-PhoP variant library, with: 10 µM Mg2+ | relative to: high Mg2+ state, higher = stronger signaling | fold induction | 0.943

Some of these lines once more (study 1):
Sequence | fluorescence intensity
GCGACTATGGTATTTCTCGTGATGGGCCTGAAGGTT | 126 a.u.
TCTGTATTCCCCAGAGTTGTGACGAATAACTGGTGA | 80.6 a.u.
